Results pooled from the literature.
Every numbered part comes from another study and shows a few of its results, in no order. Positions count from the first letter of the parent shown.

Block 1 — technique: DHFR PCA, deep sequencing; sample: yeast; with: (+)-ABA 0.0091 µM; relative to: wild-type fitted maximum; direction: higher = stronger binding
Target: ABI1, truncated, D143A, DHFR fusion (Arabidopsis thaliana)
Notes: methotrexate growth selection, single substitutions
Starting sequence: PYL1, truncated, DHFR fusion (Arabidopsis thaliana); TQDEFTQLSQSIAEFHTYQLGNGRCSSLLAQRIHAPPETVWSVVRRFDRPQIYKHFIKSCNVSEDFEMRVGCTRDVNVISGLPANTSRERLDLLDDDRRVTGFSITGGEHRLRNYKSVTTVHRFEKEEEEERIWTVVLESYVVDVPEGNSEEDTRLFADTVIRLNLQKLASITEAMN
| Variant | relative binding score |
| --- | --- |
| T6L | 37.4% |
| P146S | 13.4% |
| R69V | 35.7% |
| V40E | -2.9% |
| R49C | 29.9% |
| E128M | 14.3% |
| T1W | 22.9% |
| R45Y | -3.53% |
| C60N | -0.567% |
| L28R | 4.31% |
| V78T | 29.6% |
| E67K | 23.5% |

Block 2 — technique: aptamer microarray, sandwich; form: DNA with 2'F-ANA; sample: in vitro; tested at: 200 nM; with: Cy3 exosite-II aptamer, 400 nM; direction: higher = stronger binding; strand: GGTTGGTGTGGTTGG
Target: Prothrombin, mature alpha-thrombin (F2, Homo sapiens, UniProt P00734)
Notes: whole 15-mer aptamer, many near background
| Modification | mean fluorescence intensity [a.u.] |
| --- | --- |
| 2'F-ANA at 1 2 4 7 8 9 11 12 14 15 | 60.5 |
| 2'F-ANA at 1 3 5 7 9 10 11 15 | 76.5 |
| 2'F-ANA at 2 6 7 10 12 14 | 85.5 |
| 2'F-ANA at 2 4 5 7 10 11 13 15 | 48.1 |
| 2'F-ANA at 4 5 6 9 10 11 | 48.3 |
| 2'F-ANA at 1 2 3 4 6 9 10 12 13 | 66.2 |
| 2'F-ANA at 1 7 8 10 11 13 14 | 50.3 |
| 2'F-ANA at 1 5 9 10 11 12 13 14 15 | 127 |
| 2'F-ANA at 2 6 11 15 | 320 |
| 2'F-ANA at 1 2 4 5 7 9 10 11 13 | 48.3 |
| 2'F-ANA at 1 3 5 8 9 10 11 14 15 | 83.1 |
| 2'F-ANA at 3 4 6 7 10 15 | 269 |
| 2'F-ANA at 1 2 8 13 14 | 89 |
| 2'F-ANA at 3 4 9 11 13 14 | 289 |
| 2'F-ANA at 3 4 5 13 15 | 91.7 |
| 2'F-ANA at 3 4 5 7 9 10 12 15 | 53.8 |
| 2'F-ANA at 1 2 3 5 8 9 12 13 14 | 66.2 |

Block 3 — target: CCNB2, cyclin fold, Cln2 fusion (human); technique: yeast growth competition, sequencing; sample: yeast; notes: weak parent motif; relative to: not given; direction: higher = stronger binding
Starting sequence: SCAPER docking peptide (human); SNARRSLNFGGST; partner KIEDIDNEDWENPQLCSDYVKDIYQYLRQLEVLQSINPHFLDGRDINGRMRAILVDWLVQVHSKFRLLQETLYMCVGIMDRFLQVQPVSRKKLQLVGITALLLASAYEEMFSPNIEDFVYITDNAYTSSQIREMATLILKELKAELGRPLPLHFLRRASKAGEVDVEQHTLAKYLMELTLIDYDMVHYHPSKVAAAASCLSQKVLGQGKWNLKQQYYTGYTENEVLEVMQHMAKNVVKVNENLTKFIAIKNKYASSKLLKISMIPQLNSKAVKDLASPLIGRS
| Variant | normalised enrichment score |
| --- | --- |
| F9V | 0.00196 |
| L7H | 0.384 |
| G11N | -0.0519 |
| S1C | 0.398 |
| R4W | 0.267 |
| S1L | -0.0641 |
| S6H | 0.476 |
| A3R | -0.178 |
| G10E | -0.00737 |
| N2R | 0.671 |
| R4L | -0.396 |
| F9W | 1.17 |
| L7M | 0.339 |
| N2I | 0.225 |
| L7R | 0.16 |
| G10L | -0.021 |
| S1E | -0.643 |
| A3N | 0.783 |
| R4C | -0.392 |
| S6D | -0.0461 |
| R4E | -0.609 |
| A3V | 0.21 |
| R4K | 0.163 |
| R5K F9L | -0.0128 |
| R5A | -0.29 |

Block 4 — target: DDIT3, bZIP domain (human); technique: DHFR protein complementation; sample: yeast; relative to: wild-type JUN-FOS pair; direction: higher = stronger binding
Notes: single substitutions, most at no-binding floor
Starting sequence: JUN, bZIP domain (human); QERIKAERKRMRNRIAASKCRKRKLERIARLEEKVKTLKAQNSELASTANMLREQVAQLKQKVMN; partner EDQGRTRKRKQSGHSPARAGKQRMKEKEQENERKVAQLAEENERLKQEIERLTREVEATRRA
| Variant | binding fitness [natural log] |
| --- | --- |
| M51G | -0.0357 |
| V56P | -1.16 |
| S47W | -0.0199 |
| K39R | 0.115 |
| R53Q | -0.227 |
| L45D | -1.4 |
| V35L | 0.0388 |
| A49W | -0.546 |
| I28H | -0.125 |
| K34P | -1.07 |
| V35M | 0.07 |
| R30G | 0.0268 |
| K39S | 0.0929 |
| A57Q | -0.0286 |
| L45W | -1.07 |
| E54H | -0.0915 |

Block 5 — technique: protein binding microarray; form: double-stranded DNA, one strand shown; sample: in vitro; tested at: not given; relative to: not given; direction: higher = stronger binding
Target: Histone acetyltransferase KAT6A, winged helix 1, GST fusion (KAT6A, Homo sapiens, UniProt Q92794, residues 1-85)
Notes: 8-mer, flanks averaged, mean of 2 arrays, mostly near background
Target sequence (chain): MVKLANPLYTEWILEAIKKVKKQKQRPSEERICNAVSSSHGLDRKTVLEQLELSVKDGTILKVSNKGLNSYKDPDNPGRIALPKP
| Strand | E-score |
| --- | --- |
| GTCCTCTA | -0.12 |
| ACGTGCAA | -0.142 |
| GGGCATGA | -0.0491 |
| CAGGACAC | -0.0657 |
| AATGTGCG | 0.173 |
| AGGAGGGG | -0.244 |
| CTTTTCTC | -0.147 |
| TGGCACCA | -0.183 |
| ATACCTTG | -0.122 |
| ACGGGGGA | 0.232 |
| CATCGAAA | -0.079 |
| CACAATGC | 0.0588 |
| CCACCGGC | 0.334 |
| TCACTCAA | -0.205 |
| CAAGCCGC | 0.395 |
| GTGGTTAA | -0.0978 |
| AGAGAAGA | -0.135 |
| CAATTCCC | -0.142 |
| CTATCCTA | -0.135 |
| CAAACGCG | 0.245 |
| AACGTACA | -0.164 |
| CAGGAGAA | -0.155 |
| GACGGCAC | 0.339 |
| AACAAGAG | -0.215 |
| GGCCATTA | -0.0479 |

Block 6 — technique: competition protein-binding microarray; form: double-stranded DNA, one strand shown; sample: in vitro; tested at: 2 µM; with: Pho4 competitor, 0.05 µM; direction: higher = stronger binding; shared flanks, not repeated: … GTCTTGATTCGCTTGACGCTGCTG
Target: Centromere-binding protein 1, full length, His-tagged (CBF1, Saccharomyces cerevisiae, UniProt P17106, residues 1-351)
UniProt P17106, sequence (whole entry, looked up): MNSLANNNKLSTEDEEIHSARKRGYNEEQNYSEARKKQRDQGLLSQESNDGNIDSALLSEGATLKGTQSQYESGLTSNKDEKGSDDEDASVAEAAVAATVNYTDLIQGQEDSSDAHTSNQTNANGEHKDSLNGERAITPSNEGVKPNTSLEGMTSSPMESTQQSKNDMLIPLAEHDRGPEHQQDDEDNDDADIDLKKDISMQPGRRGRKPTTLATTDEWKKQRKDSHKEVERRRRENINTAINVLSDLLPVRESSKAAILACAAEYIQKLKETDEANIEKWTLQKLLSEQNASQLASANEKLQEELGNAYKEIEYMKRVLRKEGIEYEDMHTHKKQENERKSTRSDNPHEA
Notes: whole 60-bp probe, lowest competitor level
| Strand | fluorescence intensity |
| --- | --- |
| GCATTACGAGAGAAGTGCGTGATGGCTGGAAACTAG | 92.6 a.u. |
| TAATACTATCTCCAACACGTGAATTAGCAAGCCAAA | 1140 a.u. |
| GGTTTGTCCGTTTTATGACTCTCCTCAACAAGATAT | 103 a.u. |
| ACAAGAACACCATCCCAGGTGATAGGAGTGCTCTTT | 59.9 a.u. |
| GTTAATTTATTCCATCACGGCTGTAATGTAACCAAC | 104 a.u. |
| CATACCCAACCTTGTCACCCGACTTAAGATATTTGT | 84 a.u. |
| CTTTCCCGATCTTGTCACGTGGGTGTAGCACATTTG | 4790 a.u. |
| CGCTTGAAAAGGAATCATGTGCCTATTTTCCTCATT | 521 a.u. |
| TTAGATGACTGTTAGCACGTAATGATTTGGCCATGA | 77.8 a.u. |
| AAATTACTAAGTTGGCCCGTGGGTGACGCCGTATGA | 54.7 a.u. |
| ATTAAAGAAAAATTAAACGTGATGGGTCTATCGAGC | 297 a.u. |
| ACAGCGAGGCCATTGCACGTGCAAATAAATTGAATC | 3520 a.u. |
| GTTGTTATTTTTTAGGTCGTGATGGGTGTTCCTTGT | 99.2 a.u. |
| CTAGCCCATAAAATGGTCGTGCGGATTAACGAGCAA | 75 a.u. |
| TCGATGACAATTTTACACATGAAAAACGAACTATGT | 97.2 a.u. |
| GTCTTGTCTCATTTTCACGTGGCTTTCCCCACTTCA | 671 a.u. |
| CTAACGAAGGTTTGTCTAGTGGGTGACAAGCCAAGT | 77.5 a.u. |
| TGCGCAACAACTTGTCACGTAACTTTATGTCTAGAA | 100 a.u. |
| CTCTAATTTTACCATCACGTGCCGATTCTAGTCATT | 6300 a.u. |
| TTACCATGCCAATCAAACGTGCAAAAAAGATGAGTA | 96.9 a.u. |
| CGTCCTAGCGATTGATAGGTGGGTGCCATGAGGAAG | 73.3 a.u. |
| CAACACAAAGTTCGTCACGTCATTTAGCTGATAACG | 132 a.u. |
| CGTCCTAGTGATTGTCACCGTACTTCCATGAGGAAG | 71.5 a.u. |
| TCCACCTTTGAAAACGGTGTGACGAAGCCCTTTCGA | 63.3 a.u. |
| CATACCCAACCTTGCGACGTGGGTGAAGATATTTGT | 78 a.u. |

A few entries again (block 6):
| Strand | fluorescence intensity |
| --- | --- |
| TAATACTATCTCCAACACGTGAATTAGCAAGCCAAA | 1140 a.u. |
| TCGATGACAATTTTACACATGAAAAACGAACTATGT | 97.2 a.u. |
| GGTTTGTCCGTTTTATGACTCTCCTCAACAAGATAT | 103 a.u. |
| CTAGCCCATAAAATGGTCGTGCGGATTAACGAGCAA | 75 a.u. |
| ATTAAAGAAAAATTAAACGTGATGGGTCTATCGAGC | 297 a.u. |
| ACAGCGAGGCCATTGCACGTGCAAATAAATTGAATC | 3520 a.u. |
| CTCTAATTTTACCATCACGTGCCGATTCTAGTCATT | 6300 a.u. |
| CATACCCAACCTTGCGACGTGGGTGAAGATATTTGT | 78 a.u. |
